Results collected from several papers.
Numbered parts are unrelated; each lists some results of a single study.

Sample 1
Target: Protein C-ets-1 (ETS1, Homo sapiens, UniProt P14921, residues 1-441, Y397A, full length assumed)
Technique: protein-binding microarray
Form: double-stranded DNA, one strand shown
Matrix: in vitro
Tested at: not given
Notes: k-mer, scored over probes, only values ≥0.25
Reading: higher = stronger binding
Residues (chain): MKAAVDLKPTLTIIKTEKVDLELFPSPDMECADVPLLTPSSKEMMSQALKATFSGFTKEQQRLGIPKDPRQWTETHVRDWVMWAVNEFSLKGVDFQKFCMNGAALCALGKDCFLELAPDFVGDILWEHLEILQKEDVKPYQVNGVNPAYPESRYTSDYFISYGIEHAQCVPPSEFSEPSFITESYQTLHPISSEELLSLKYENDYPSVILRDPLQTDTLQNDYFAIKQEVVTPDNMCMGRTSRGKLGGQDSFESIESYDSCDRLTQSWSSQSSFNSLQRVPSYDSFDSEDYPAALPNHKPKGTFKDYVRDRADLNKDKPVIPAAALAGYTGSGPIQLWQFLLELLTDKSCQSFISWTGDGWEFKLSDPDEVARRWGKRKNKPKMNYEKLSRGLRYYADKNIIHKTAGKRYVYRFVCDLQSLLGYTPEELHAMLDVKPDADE
Oligonucleotide | E-score
ATCGGAAG | 0.309
TGGCAAAA | 0.415
TATGACAA | 0.267
GCGCAAAA | 0.302

Sample 2
Target: Interferon regulatory factor 7, full length, phosphomimetic (IRF7, Homo sapiens, UniProt Q92985, residues 1-503, S471D/S472D/S475D/S476D/S477D/S483D/S484D/S487D)
Technique: protein-binding microarray
Form: double-stranded DNA, one strand shown
Matrix: in vitro
Tested at: 2200 nM top
Notes: 60-bp whole probe
Added: salmon DNA 0.4 mg/ml
Baseline: random background probes
Reading: higher = stronger binding
Shared flanks, not repeated: GCCTAGCAC … GTCTTGATTCGCTTGACGCTGCTG
Residues (chain): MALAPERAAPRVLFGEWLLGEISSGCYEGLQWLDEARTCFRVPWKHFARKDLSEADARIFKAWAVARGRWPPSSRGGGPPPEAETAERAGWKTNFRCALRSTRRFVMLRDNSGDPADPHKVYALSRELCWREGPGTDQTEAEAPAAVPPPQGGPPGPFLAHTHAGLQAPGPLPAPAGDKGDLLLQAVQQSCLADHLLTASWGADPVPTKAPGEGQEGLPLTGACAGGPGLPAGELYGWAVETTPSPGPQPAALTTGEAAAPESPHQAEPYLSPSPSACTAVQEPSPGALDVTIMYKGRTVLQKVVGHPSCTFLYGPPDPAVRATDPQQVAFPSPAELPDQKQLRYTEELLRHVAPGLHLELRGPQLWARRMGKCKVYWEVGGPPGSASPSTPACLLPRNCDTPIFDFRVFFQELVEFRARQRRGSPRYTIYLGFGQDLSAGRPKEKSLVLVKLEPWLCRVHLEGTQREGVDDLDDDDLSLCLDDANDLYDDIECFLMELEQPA
Oligonucleotide | fitted relative affinity
GACGGTTTCCTTTTCTTGACGTGCTAG | 4.64 z-score
TTAGGACTGGGACTGGGTTCGTGCTAG | -0.638 z-score
TTTGGTCTCGGTCTCGGTTAGTGCTAG | 1.52 z-score
GACGGACTGCTTATCCAGACGTGCTAG | 0.116 z-score
TTAGGACTGGGGTTTCGGCTAGTGCTA | 0.302 z-score
CCATACTTCCCACTGGTCTTGTGCTAG | 1.61 z-score

Sample 3
Target: Sal-like protein 4, full length isoform B (SALL4, Homo sapiens, UniProt Q9UJQ4-2, residues 1-616)
Technique: universal PBM
Form: double-stranded DNA, one strand shown
Matrix: in vitro
Tested at: not given
Notes: 8-mer, flanks averaged, mean of replicates
Reading: higher = stronger binding
Oligonucleotide | E-score
AAGATGTC | 0.0896
ATATTAAC | 0.396
CTTGCCGA | 0.00304
AGATTCGA | -0.108
AGCGAATA | 0.142
GCTCACGA | -0.2
TGAATGAA | 0.233
GTAAGACA | 0.0628

Sample 4
Molecule: PhoQ, residues 284 288 289 292 302 303 TAVSDG
Technique: Sort-seq
Item: YFP reporter
Matrix: E. coli
Notes: PhoQ-PhoP variant library
Added: 10 µM Mg2+
Baseline: high Mg2+ state
Reading: higher = stronger signaling
target | fold induction
PhoP, residues 12 14 15 18 19 STHWV (Escherichia coli, UniProt P23836) | 0.991
PhoP, residues 12 14 15 18 19 QYCSL (Escherichia coli, UniProt P23836) | 5.5
PhoP, residues 12 14 15 18 19 SHWTV (Escherichia coli, UniProt P23836) | 0.838

Excerpt of the above (sample 4):
target | fold induction
PhoP, residues 12 14 15 18 19 STHWV (Escherichia coli, UniProt P23836) | 0.991
PhoP, residues 12 14 15 18 19 QYCSL (Escherichia coli, UniProt P23836) | 5.5
